Measured values gathered from unrelated publications.
Protocols differ between the studies behind these lines. Numbers after ± are the reported error.
cyp121: Mycocyclosin synthase (cyp121, Mycobacterium tuberculosis, UniProt P9WPP7)
ache: Acetylcholinesterase (ache, Electrophorus electricus, UniProt O42275)
inhA: Enoyl-[acyl-carrier-protein] reductase [NADH] (inhA, Mycobacterium tuberculosis, UniProt P9WGR1)
4'-phosphopantetheinyl transferase PptT: 4'-phosphopantetheinyl transferase PptT (Mycobacterium tuberculosis, UniProt O33336)
ACHE: Acetylcholinesterase (ACHE, Homo sapiens, UniProt P22303)
BCHE: Cholinesterase (BCHE, Homo sapiens, UniProt P06276)

Protein sequences, listed by entry. Tags and fused reporters are not part of them.
UniProt P9WPP7, whole entry: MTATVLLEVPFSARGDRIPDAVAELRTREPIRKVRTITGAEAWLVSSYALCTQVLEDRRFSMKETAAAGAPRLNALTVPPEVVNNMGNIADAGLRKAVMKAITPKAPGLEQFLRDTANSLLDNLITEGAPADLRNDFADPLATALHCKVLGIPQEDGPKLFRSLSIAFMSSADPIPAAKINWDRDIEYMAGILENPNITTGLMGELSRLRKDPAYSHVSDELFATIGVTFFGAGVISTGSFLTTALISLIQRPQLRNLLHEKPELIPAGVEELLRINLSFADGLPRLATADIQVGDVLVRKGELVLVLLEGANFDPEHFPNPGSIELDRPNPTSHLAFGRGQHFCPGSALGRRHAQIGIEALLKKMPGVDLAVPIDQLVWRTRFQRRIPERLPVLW
UniProt O42275, whole entry, looked up: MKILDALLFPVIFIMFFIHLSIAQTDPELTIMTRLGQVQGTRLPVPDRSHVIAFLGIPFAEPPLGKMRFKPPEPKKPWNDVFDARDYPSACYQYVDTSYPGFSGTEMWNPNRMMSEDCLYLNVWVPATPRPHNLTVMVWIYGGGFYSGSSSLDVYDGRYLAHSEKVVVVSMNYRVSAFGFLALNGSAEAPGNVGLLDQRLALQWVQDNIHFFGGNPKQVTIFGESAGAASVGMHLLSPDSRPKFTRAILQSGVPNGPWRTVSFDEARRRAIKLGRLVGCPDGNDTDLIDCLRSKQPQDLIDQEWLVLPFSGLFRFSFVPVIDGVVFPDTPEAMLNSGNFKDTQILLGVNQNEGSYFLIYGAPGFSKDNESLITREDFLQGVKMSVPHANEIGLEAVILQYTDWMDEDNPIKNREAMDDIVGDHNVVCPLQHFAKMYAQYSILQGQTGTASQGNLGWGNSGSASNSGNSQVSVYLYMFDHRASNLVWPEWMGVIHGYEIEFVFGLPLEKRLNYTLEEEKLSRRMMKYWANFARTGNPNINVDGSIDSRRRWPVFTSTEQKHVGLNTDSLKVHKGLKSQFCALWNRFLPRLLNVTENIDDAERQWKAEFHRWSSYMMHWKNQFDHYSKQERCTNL
UniProt P9WGR1, whole entry: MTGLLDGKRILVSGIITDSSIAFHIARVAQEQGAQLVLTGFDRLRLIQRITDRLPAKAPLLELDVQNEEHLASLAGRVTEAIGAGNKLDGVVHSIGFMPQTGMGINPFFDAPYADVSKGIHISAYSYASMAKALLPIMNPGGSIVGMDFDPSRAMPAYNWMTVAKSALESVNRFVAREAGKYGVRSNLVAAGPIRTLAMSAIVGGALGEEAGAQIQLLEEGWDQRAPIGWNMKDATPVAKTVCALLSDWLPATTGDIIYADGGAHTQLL
UniProt O33336, whole entry: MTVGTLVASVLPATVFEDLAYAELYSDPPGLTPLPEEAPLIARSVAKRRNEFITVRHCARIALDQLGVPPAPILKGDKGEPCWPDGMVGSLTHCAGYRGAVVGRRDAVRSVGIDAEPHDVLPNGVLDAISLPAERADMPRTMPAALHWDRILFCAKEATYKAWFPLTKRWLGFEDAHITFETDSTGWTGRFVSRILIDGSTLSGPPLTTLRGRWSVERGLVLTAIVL
UniProt P22303, whole entry, looked up: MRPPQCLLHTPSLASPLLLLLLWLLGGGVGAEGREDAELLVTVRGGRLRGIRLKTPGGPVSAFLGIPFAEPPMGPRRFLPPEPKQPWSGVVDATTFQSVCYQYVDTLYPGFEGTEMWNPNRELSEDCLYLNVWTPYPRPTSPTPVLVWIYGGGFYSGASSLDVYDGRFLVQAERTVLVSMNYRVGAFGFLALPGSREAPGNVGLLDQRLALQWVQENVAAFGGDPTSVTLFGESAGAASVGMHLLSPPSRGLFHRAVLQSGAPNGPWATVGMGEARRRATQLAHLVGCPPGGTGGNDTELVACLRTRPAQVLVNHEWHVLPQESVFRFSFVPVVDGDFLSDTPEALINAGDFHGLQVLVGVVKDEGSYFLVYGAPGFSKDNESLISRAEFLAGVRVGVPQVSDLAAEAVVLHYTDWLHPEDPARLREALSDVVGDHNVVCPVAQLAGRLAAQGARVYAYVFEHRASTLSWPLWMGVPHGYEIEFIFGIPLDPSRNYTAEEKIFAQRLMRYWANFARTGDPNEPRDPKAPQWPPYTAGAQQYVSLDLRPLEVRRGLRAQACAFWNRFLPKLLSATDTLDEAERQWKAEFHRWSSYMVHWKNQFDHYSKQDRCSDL
UniProt P06276, whole entry, looked up: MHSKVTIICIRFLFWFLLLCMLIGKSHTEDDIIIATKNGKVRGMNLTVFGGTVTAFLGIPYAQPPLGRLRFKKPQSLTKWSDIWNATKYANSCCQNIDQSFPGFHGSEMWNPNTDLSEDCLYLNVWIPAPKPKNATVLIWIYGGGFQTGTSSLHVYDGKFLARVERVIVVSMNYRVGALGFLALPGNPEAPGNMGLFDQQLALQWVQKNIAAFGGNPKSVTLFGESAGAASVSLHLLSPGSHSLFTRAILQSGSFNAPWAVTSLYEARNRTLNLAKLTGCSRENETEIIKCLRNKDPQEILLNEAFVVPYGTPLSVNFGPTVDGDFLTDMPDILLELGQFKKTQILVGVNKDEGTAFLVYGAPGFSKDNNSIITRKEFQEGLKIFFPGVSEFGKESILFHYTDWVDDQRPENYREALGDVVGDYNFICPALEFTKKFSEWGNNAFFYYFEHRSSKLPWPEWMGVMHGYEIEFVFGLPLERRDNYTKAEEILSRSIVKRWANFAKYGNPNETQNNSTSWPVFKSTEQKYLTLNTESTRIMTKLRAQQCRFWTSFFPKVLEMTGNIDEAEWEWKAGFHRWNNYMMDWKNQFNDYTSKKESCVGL
UniProt I6WXK4, whole entry: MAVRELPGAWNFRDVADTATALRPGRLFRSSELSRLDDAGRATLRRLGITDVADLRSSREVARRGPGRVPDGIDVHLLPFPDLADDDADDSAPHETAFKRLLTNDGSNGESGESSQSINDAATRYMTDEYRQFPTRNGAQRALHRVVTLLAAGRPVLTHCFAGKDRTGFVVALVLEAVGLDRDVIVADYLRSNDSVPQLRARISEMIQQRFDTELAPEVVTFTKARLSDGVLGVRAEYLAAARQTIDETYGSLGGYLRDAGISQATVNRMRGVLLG
UniProt P9WFX1, whole entry: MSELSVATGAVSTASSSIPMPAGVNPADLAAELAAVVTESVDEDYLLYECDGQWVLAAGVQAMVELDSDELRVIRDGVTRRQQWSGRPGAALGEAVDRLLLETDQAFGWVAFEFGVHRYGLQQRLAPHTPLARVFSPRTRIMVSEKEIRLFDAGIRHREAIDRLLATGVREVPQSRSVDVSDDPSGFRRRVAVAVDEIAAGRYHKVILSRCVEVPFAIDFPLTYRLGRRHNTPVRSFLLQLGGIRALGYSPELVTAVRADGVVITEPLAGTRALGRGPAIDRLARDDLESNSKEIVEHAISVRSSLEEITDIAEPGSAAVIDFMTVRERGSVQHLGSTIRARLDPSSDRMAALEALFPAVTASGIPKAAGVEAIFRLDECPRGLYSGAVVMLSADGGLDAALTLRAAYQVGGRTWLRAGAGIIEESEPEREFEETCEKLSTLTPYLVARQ
UniProt P02550, whole entry: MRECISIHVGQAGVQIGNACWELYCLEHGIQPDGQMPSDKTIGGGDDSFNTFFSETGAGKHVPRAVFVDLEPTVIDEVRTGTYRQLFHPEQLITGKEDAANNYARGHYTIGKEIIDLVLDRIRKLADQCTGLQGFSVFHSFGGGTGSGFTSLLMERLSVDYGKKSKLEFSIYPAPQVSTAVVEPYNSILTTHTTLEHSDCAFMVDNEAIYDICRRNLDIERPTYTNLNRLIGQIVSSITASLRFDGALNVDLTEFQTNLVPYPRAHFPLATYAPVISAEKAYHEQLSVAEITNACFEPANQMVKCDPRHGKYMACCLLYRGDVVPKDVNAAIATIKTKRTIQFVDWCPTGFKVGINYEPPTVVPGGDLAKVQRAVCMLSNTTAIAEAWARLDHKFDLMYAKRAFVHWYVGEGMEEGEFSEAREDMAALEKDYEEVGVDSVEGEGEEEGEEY
UniProt P02554, whole entry: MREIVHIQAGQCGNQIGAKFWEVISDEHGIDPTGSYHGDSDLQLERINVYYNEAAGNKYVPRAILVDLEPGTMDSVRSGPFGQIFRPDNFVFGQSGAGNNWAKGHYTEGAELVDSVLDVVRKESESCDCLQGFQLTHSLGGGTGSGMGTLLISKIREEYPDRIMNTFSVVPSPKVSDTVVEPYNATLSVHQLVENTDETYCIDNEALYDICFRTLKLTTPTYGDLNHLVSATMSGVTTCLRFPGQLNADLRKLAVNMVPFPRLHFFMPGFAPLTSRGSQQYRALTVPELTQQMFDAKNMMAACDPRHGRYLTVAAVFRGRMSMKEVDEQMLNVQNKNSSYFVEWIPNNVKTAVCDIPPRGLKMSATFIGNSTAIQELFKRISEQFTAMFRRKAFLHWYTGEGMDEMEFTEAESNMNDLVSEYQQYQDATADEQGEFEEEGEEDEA
UniProt Q01827, whole entry: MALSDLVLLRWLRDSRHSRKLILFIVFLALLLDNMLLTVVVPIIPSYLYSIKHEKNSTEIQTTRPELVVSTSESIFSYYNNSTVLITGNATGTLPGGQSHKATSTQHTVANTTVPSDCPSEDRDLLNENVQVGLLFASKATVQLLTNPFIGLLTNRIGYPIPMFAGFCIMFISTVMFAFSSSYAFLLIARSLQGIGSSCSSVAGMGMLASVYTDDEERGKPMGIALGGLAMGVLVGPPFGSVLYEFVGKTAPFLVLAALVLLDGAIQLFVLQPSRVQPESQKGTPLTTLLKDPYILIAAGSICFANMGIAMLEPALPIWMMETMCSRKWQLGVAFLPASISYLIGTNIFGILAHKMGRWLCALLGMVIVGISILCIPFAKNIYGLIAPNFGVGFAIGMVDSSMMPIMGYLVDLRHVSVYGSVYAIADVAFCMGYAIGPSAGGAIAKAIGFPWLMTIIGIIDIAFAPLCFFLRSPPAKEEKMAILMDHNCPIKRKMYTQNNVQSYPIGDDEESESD
UniProt P23977, whole entry: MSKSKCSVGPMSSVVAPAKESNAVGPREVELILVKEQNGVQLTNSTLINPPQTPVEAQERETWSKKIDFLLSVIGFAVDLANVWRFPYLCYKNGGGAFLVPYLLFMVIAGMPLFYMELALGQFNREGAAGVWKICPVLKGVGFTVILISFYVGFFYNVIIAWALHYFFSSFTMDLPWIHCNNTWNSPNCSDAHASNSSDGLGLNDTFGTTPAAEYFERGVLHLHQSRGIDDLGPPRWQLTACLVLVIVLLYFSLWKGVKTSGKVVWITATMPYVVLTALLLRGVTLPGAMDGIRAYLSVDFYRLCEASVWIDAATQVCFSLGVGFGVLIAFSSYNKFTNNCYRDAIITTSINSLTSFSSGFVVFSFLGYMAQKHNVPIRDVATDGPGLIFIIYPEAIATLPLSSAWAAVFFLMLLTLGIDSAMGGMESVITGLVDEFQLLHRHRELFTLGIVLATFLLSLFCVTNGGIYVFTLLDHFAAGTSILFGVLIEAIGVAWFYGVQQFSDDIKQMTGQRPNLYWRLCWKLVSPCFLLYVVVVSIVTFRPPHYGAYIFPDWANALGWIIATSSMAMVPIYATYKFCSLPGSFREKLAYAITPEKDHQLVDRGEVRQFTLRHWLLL
UniProt Q869C3, whole entry, looked up: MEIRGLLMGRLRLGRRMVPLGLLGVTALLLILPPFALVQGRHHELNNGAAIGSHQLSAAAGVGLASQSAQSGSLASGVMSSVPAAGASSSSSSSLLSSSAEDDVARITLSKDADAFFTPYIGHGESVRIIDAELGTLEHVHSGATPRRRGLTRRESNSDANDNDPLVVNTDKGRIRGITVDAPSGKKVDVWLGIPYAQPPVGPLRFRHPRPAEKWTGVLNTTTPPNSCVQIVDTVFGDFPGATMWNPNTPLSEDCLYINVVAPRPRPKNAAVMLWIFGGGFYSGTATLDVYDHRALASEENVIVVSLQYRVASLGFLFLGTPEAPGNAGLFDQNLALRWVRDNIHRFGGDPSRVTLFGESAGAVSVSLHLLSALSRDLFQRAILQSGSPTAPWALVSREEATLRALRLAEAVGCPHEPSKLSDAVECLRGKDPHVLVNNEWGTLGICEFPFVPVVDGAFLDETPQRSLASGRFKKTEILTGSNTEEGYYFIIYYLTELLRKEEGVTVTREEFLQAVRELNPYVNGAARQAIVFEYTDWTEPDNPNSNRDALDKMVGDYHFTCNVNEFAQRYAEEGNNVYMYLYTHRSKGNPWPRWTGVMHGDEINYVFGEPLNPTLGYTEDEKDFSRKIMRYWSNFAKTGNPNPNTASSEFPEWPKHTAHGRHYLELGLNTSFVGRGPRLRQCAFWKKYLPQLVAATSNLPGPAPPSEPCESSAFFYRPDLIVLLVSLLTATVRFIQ
UniProt O95551, whole entry: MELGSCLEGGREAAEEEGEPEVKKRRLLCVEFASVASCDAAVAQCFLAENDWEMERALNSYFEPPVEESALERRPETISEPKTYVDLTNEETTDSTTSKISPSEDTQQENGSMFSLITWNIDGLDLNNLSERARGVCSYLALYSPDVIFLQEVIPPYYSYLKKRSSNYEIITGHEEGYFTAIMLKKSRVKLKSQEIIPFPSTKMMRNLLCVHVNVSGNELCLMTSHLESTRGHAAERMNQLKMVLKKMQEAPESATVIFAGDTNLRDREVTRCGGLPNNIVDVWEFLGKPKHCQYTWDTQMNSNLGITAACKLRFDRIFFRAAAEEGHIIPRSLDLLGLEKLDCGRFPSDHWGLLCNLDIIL

| Structure (SMILES) | target | assay | system | conditions | measurement | result |
| --- | --- | --- | --- | --- | --- | --- |
| CCC(c1ccc(-c2cc(F)ccc2F)cc1F)n1ccnc1 (centres unmarked) | cyp121 | binding | – | – | Kd | 8 ± 1.3 µM |
| C(=C\CN1CCc2sccc2C1)/CN1CCc2sccc2C1 | ache | enzyme activity, inhibitor, Ellman | – | 10 min preincubation, pH 8, 23 °C | IC50 | 331000 ± 8000 nM |
| C[C@@H]1NC(=O)[C@H](CCCNC(=N)N)NC(=O)[C@H](CCCNC(=N)N)NC(=O)[C@@H]2CCCN2C(=O)[C@H](CO)NC(=O)[C@@H]2CSSC[C@H](NC(=O)CN)C(=O)N[C@@H](CSSC[C@@H](C(N)=O)NC(=O)[C@H](CO)NC(=O)[C@H](CCCNC(=N)N)NC1=O)C(=O)N[C@@H](CO)C(=O)N[C@@H](Cc1c[nH]cn1)C(=O)N1CCC[C@H]1C(=O)N[C@@H](C)C(=O)N2 | CHRNA7 (Homo sapiens, UniProt P36544) | ion current, antagonist, two-electrode voltage clamp | Xenopus oocytes | holding -70 mV, added: 100 µM acetylcholine | IC50 | 2120 nM |
| CCCCCCCCN(O)C(=O)Cc1ccc(O)c(OC)c1 | ADAM17 (Oryctolagus cuniculus, UniProt G1SZC8) | enzyme activity, inhibitor | Oryctolagus cuniculus, treated cornea extract | – | IC50 | 0.52 nmol |
| C#CCOc1ccc2cc(OCC#C)c(C(=O)O)cc2c1 | ptpB (Mycobacterium tuberculosis, UniProt I6WXK4) | inhibitor | – | pH 7 | IC50 | 50000 nM |
| CCN1CCN(c2nnc(-c3ccccn3)s2)CC1 | ache | enzyme activity, inhibitor, Ellman | – | 10 min preincubation, pH 8, 23 °C | IC50 | 634000 ± 67000 nM |
| C[C@@H](O)[C@@H]1NC(=O)[C@@H]2CSSC[C@@H](C(=O)N[C@H](CC(=O)N[C@@H](CCCNC(=N)N)C(=O)O)Cc3ccc(O)cc3)NC(=O)[C@H](CCC(N)=O)NC(=O)[C@H](Cc3ccc(O)c(I)c3)NC(=O)[C@H](CCCNC(=N)N)NC(=O)[C@H](CSSC[C@H](NC(=O)CN)C(=O)N2)NC(=O)[C@H](CCCNC(=N)N)NC(=O)[C@@H]2CCCN2C(=O)[C@H](CC(=O)O)NC1=O | Neuronal acetylcholine receptor; alpha9/alpha10 (Homo sapiens, UniProt Q9GZZ6+Q9UGM1) | ion current, antagonist | – | – | IC50 | 0.85 nM |
| CCCc1ccc(Oc2ccc(Cl)cc2Cl)c(O)c1 | inhA | inhibitor | – | – | IC50 | 91 ± 15 nM |
| CCOC(=O)CC[C@H](NC(=O)c1ccc(N(C)Cc2ccc3c(c2)CCC(=O)N3)cc1)C(=O)OCC | 4'-phosphopantetheinyl transferase PptT | enzyme activity, inhibitor, fluorescence polarization | – | – | IC50 | > 25000 nM |
| CC(O)c1cc2[nH]c(=S)n(Cc3cccnc3)c(=O)c2cc1Cl (single isomer, unassigned) | 4'-phosphopantetheinyl transferase PptT | enzyme activity, inhibitor, fluorescence polarization | – | – | IC50 | 31700 nM |
| COc1ccc(-c2ccc(C(C)n3ccnc3)cc2)cc1 (centres unmarked) | cyp121 | binding | – | – | Kd | 10.9 ± 2 µM |
| c1cc[n+](CCCCCCCCCC[n+]2ccccc2)cc1 | ACHE | enzyme activity, inhibitor | – | – | IC50 | 400 ± 80 nM |
| O=C(O)c1ccc(-c2ccc(C(F)(F)F)cc2Cl)o1 | mbtI (Mycobacterium tuberculosis, UniProt P9WFX1) | enzyme activity, inhibitor | – | – | IC50 | 28500 ± 2600 nM |
| O=c1c2cc(CO)ccc2[nH]c(=S)n1Cc1cccnc1 | 4'-phosphopantetheinyl transferase PptT | enzyme activity, inhibitor, fluorescence polarization | – | – | IC50 | 360 nM |
| CC(C)(C)c1cc[n+](COC[n+]2ccc(C(C)(C)C)cc2)cc1 | ACHE | enzyme activity, inhibitor | – | – | IC50 | 12000 ± 2000 nM |
| CC[C@H](C)[C@@H]([C@@H](CC(=O)N1CCC[C@H]1[C@H](OC)[C@@H](C)C(=O)NCCc1ccccc1)OC)N(C)C(=O)[C@@H](NC(=O)[C@H](C(C)C)N(C)C)C(C)C [isotope labelled] | Tubulin alpha-1A/beta chain (Sus scrofa, UniProt P02550+P02554) | microtubule polymerization, inhibitor | – | 30 min, 37 °C | IC50 | 2200 ± 600 nM |
| Oc1cc(Cc2ccccn2)ccc1Oc1ccc(Cl)cc1Cl | inhA | inhibitor | – | – | IC50 | 29 ± 11 nM |
| c1ccc2c[n+](CCCCCCCC[n+]3ccc4ccccc4c3)ccc2c1 | ACHE | enzyme activity, inhibitor | – | – | IC50 | 5 ± 1 nM |

| Structure (SMILES) | target | assay | system | conditions | measurement | result |
| --- | --- | --- | --- | --- | --- | --- |
| O=C(O)C(=O)CC(=O)C1(Cc2ccc(Cl)cc2)CCN(Cc2ccccc2)CC1 | RNA-dependent RNA polymerase, endonuclease domain (Heartland virus, UniProt A0A075M4H4) | endonuclease activity | – | – | IC50 | 3300 ± 400 nM |
| c1cc[n+](CCCCCCCCCC[n+]2cccc3ccccc32)cc1 | BCHE | enzyme activity, inhibitor | – | – | IC50 | 3200 ± 500 nM |
| CC[C@H]1C[C@@H]2C[C@H]3c4c(c5cc(C#N)ccc5n4C)CCN(C2)[C@@H]13 | Slc18a2 (Rattus norvegicus, UniProt Q01827) | [3H]5-HT uptake, inhibitor | rat brain synaptic vesicles | added: [3H]5-HT | IC50 | 1320 ± 145 nM |
| CC(C)(C)c1cc[n+](CCCCCCCC[n+]2ccc(C(C)(C)C)cc2)cc1 | ACHE | enzyme activity, inhibitor | – | – | IC50 | 5 ± 0.9 nM |
| CCN(CC)Cc1cc(N)ccc1O | ACHE | enzyme activity, inhibitor | – | added: acetylthiocholine | IC50 | 17800 nM |
| Oc1cc(Cc2cccnc2)ccc1Oc1ccc(Cl)cc1Cl | inhA | inhibitor | – | – | IC50 | 42 ± 10 nM |
| CCCNC(C)Cc1ccccc1 (centres unmarked) | Slc6a3 (Rattus norvegicus, UniProt P23977) | dopamine uptake, inhibitor | rat brain synaptosomes | – | IC50 | 1010 ± 101 nM |
| CCc1ccc(Oc2ccc(Cl)cc2Cl)c(O)c1 | inhA | inhibitor | – | – | IC50 | 120 ± 19 nM |
| c1ccc2c(c1)ccc[n+]2CCCCCCCCCC[n+]1cccc2ccccc21 | BCHE | enzyme activity, inhibitor | – | – | IC50 | 100 ± 20 nM |
| Cc1cccc(-c2ccc(Oc3ccc(Cl)cc3Cl)c(O)c2)c1 | inhA | inhibitor | – | – | IC50 | 870 ± 110 nM |
| C=CC[N+](C)(C)c1ccc(CCC(=O)CCc2ccc([N+](C)(C)CC=C)cc2)cc1 | Ace (Anopheles gambiae, UniProt Q869C3) | enzyme activity, inhibitor, Ellman | – | 10 min, room temperature, added: acetylthiocholine | IC50 | 199 nM |
| Cc1ccccc1-c1ccc(Oc2ccc(Cl)cc2Cl)c(O)c1 | inhA | inhibitor | – | – | IC50 | 1300 ± 77 nM |
| N#Cc1ccc(-c2ccc(COCCc3ccc(-c4nc5cc(-c6ccccc6)ccn5c4Nc4ccc(C(=O)O)cc4)cc3)cc2)nc1 | TDP2 (Homo sapiens, UniProt O95551) | enzyme activity, inhibitor | – | – | IC50 | > 100000 nM |
| Oc1cc(-c2ccc(F)cc2)ccc1Oc1ccc(Cl)cc1Cl | inhA | inhibitor | – | – | IC50 | > 10000 nM |
| Cc1ccc(NC2CCCC(C(=O)N3CCc4ccccc4C3)C2)cc1 (centres unmarked) | ache | enzyme activity, inhibitor, Ellman | – | 10 min preincubation, pH 8, 23 °C | IC50 | 393000 ± 27000 nM |
| Oc1cc(CCCc2ccccc2)ccc1Oc1ccc(Cl)cc1Cl | inhA | inhibitor | – | – | IC50 | 50 ± 14 nM |
| C#CCOCCC(=O)N[C@H](Cc1ccccc1)C(=O)N[C@@H](Cc1ccccc1)C(=O)N[C@@H](CCCNC(N)=O)C(=O)CCl | Replicase polyprotein 1ab, main protease (rep, Severe acute respiratory syndrome coronavirus 2, UniProt P0DTD1) | enzyme activity, inhibitor | – | near enzyme concentration | IC50 | 25 ± 5 nM |

Excerpt of the above:
| Structure (SMILES) | target | assay | system | conditions | measurement | result |
| --- | --- | --- | --- | --- | --- | --- |
| c1cc[n+](CCCCCCCCCC[n+]2cccc3ccccc32)cc1 | BCHE | enzyme activity, inhibitor | – | – | IC50 | 3200 ± 500 nM |
| CC[C@H]1C[C@@H]2C[C@H]3c4c(c5cc(C#N)ccc5n4C)CCN(C2)[C@@H]13 | Slc18a2 (Rattus norvegicus, UniProt Q01827) | [3H]5-HT uptake, inhibitor | rat brain synaptic vesicles | added: [3H]5-HT | IC50 | 1320 ± 145 nM |
